{"data": "Experimental data collected from several papers", "note": "Each numbered part is a random draw from the data of one study; scales do not carry over between parts. Values joined by “and” are separate records of one study, mostly repeats; a detail may differ. Numbers after ± are the reported error."}
{"data": "Sample 1", "target": "Replicase polyprotein 1ab, nsp12 with nsp7/nsp8 (rep, Severe acute respiratory syndrome coronavirus 2, UniProt P0DTD1)", "read-out": "polymerase activity", "organism": "SARS-CoV-2", "concentration": "20 µM"}
{"SMILES": "CC(C)N[C@@H]1CCn2c(=O)[nH]c3cccc(c32)[C@H]1O", "inhibition": "11.3%"}
{"SMILES": "C=CC(=O)c1ccc2ccccc2c1", "inhibition": "-2.29%"}
{"SMILES": "O=C1C(c2ccccn2)=[N+]([O-])c2ccccc21", "inhibition": "1.69%"}
{"SMILES": "Oc1c(I)cc(I)c(O)c1I", "inhibition": "3.65%"}
{"SMILES": "O=[N+]([O-])C=Cc1ccc2c(c1)OCO2", "inhibition": "-1.04%"}
{"SMILES": "Nc1nnc(Sc2ncc([N+](=O)[O-])s2)s1", "inhibition": "-12.2%"}
{"SMILES": "Cc1ccc(-n2sc(=O)n(Cc3ccc(F)cc3)c2=O)cc1", "inhibition": "-1.91%"}
{"SMILES": "CC(C)(C)c1ccc(S(=O)(=O)/C=C/C#N)cc1", "inhibition": "0.69%"}
{"SMILES": "CCC(C)SSc1ncc[nH]1 (stereo not drawn)", "inhibition": "-1.01%"}
{"SMILES": "Cc1nc(C#Cc2ccnc(Cl)c2)c(C)n1-c1ccc(OC(F)(F)F)cc1", "inhibition": "0.79%"}
{"SMILES": "O=S(=O)(O)c1ccc(-c2c3nc(c(-c4ccc(S(=O)(=O)O)cc4)c4ccc([nH]4)c(-c4ccc(S(=O)(=O)O)cc4)c4nc(c(-c5ccc(S(=O)(=O)O)cc5)c5ccc2[nH]5)C=C4)C=C3)cc1", "inhibition": "31.3%"}
{"SMILES": "Cc1ccc(S(=O)(=O)/C=C/C#N)cc1", "inhibition": "0.25%"}
{"SMILES": "O=C(O)[C@@H](S)[C@@H](S)C(=O)O", "inhibition": "27.7%"}
{"data": "Sample 2", "target": "Replicase polyprotein 1ab, main protease (rep, Severe acute respiratory syndrome coronavirus 2, UniProt P0DTD1)", "read-out": "enzyme activity", "concentration": "20 µM", "notes": "with DTT"}
{"Compound": "Oc1cc2c(cc1C(c1ccc(C(F)(F)F)cc1)N1CCOCC1)OCO2 (stereo not drawn)", "inhibition [%]": 98.6}
{"Compound": "CCN1CCN(C(c2ccc(C(F)(F)F)cc2)c2ccc3cccnc3c2O)CC1 (stereo not drawn)", "inhibition [%]": 99.6}
{"Compound": "NC[C@@H]1O[C@H](C23CC4CC(CC(C4)C2)C3)Cc2c1ccc(O)c2O", "inhibition [%]": -14}
{"data": "Sample 3", "cell line": "HEK-293T", "read-out": "pseudovirus infection", "technique": "FDA-approved drug library screen", "organism": "VSV pseudotyped with SARS-CoV-2 spike", "concentration": "10 µM", "time": "16 h", "relative to": "vehicle-treated"}
{"SMILES": "C[C@H](N)[C@H](O)c1cccc(O)c1", "GFP-positive cells [%]": 113}
{"SMILES": "Cc1cc2nc3c(=O)[nH]c(=O)nc-3n(C[C@H](O)[C@H](O)[C@H](O)CO)c2cc1C", "GFP-positive cells [%]": 76.6}
{"SMILES": "COc1cc2nc(N3CCN(C(=O)C4CCCO4)CC3)nc(N)c2cc1OC (stereo not drawn)", "GFP-positive cells [%]": 81.6}
{"data": "Single results of other studies"}
{"Structure (SMILES)": "CCOC(=O)CC(SP(=S)(OC)OC)C(=O)OCC (stereo not drawn)", "tested on": "uncharacterized protein (Anopheles coluzzii, UniProt A0A6E8VQK1)", "test": "enzyme activity, inhibitor", "test system": "Sf9 cell homogenate", "setting": "0.004545 µM, 0.1667 h, with: α-naphthyl acetate substrate", "how to read": "relative to: no inhibitor", "measurement": "remaining activity", "value": "104%"}
{"Structure (SMILES)": "Oc1c(Br)cc(Br)cc1-c1[nH]c(Br)c(Br)c1Br", "tested on": "Brucella anthropi", "test system": "ATCC 49687", "measurement": "MIC", "value": "2 µM"}
{"Structure (SMILES)": "COC(=O)[C@H]1[C@H]2C[C@@H]3c4[nH]c5cc(OC)ccc5c4CCN3C[C@H]2C[C@@H](OC(=O)c2cc(OC)c(OC)c(OC)c2)[C@@H]1OC", "tested on": "SARS-CoV-2", "test": "viral replication, high-content imaging screen", "setting": "cell-based", "measurement": "EC50", "value": "> 50.1 µM"}
{"Structure (SMILES)": "CCOC(=O)c1c(NC(=O)c2cc3ccccc3o2)sc(C)c1C", "tested on": "Replicase polyprotein 1ab, nsp14 N7-methyltransferase (rep, Severe acute respiratory syndrome coronavirus 2, UniProt P0DTD1)", "test": "N7-methyltransferase activity, inhibitor, Py-FLINT", "measurement": "Hill slope", "value": "1.08 ± 0.06"}
{"Structure (SMILES)": "Cn1cnc(Cn2c(=O)[nH]/c(=N\\c3cc4cn(C)nc4cc3Cl)n(Cc3cc(F)c(F)cc3F)c2=O)n1", "test system": "human, moderate renal impairment, plasma", "setting": "oral, 375 mg single dose", "measurement": "AUC(0-last)", "value": "1440 µg·h/mL"}
{"Structure (SMILES)": "CCCCCCCCCCCCCCCC(=O)NS(=O)(=O)OCC", "tested on": "Bacillus anthracis", "test system": "Sterne 34F2", "measurement": "MIC", "value": "> 200 µg/mL"}
{"Structure (SMILES)": "OCc1cc(C(O)CNCCCCCCOCCCCc2ccccc2)ccc1O (stereo not drawn)", "tested on": "SARS-CoV-2", "test": "viral replication, GFP plate reader screen", "setting": "cell-based", "measurement": "EC50", "value": "19.1 µM"}
{"Structure (SMILES)": "CNC(=O)[C@@H](NC(=O)[C@H](CC(C)C)[C@H](O)C(=O)NO)C(C)(C)C", "tested on": "Daboia russelii venom proteases (SVMP)", "test": "protease activity, inhibitor", "test system": "MH population", "setting": "0.001 µM, with: azocasein substrate", "how to read": "relative to: venom alone", "measurement": "remaining activity", "value": "99.3% and 98.5% and 96.1%"}
{"note": "Some of these lines once more (single results of other studies):"}
{"Structure (SMILES)": "CCOC(=O)CC(SP(=S)(OC)OC)C(=O)OCC (stereo not drawn)", "tested on": "uncharacterized protein (Anopheles coluzzii, UniProt A0A6E8VQK1)", "test": "enzyme activity, inhibitor", "test system": "Sf9 cell homogenate", "setting": "0.004545 µM, 0.1667 h, with: α-naphthyl acetate substrate", "how to read": "relative to: no inhibitor", "measurement": "remaining activity", "value": "104%"}
{"Structure (SMILES)": "COC(=O)[C@H]1[C@H]2C[C@@H]3c4[nH]c5cc(OC)ccc5c4CCN3C[C@H]2C[C@@H](OC(=O)c2cc(OC)c(OC)c(OC)c2)[C@@H]1OC", "tested on": "SARS-CoV-2", "test": "viral replication, high-content imaging screen", "setting": "cell-based", "measurement": "EC50", "value": "> 50.1 µM"}
{"Structure (SMILES)": "CCOC(=O)c1c(NC(=O)c2cc3ccccc3o2)sc(C)c1C", "tested on": "Replicase polyprotein 1ab, nsp14 N7-methyltransferase (rep, Severe acute respiratory syndrome coronavirus 2, UniProt P0DTD1)", "test": "N7-methyltransferase activity, inhibitor, Py-FLINT", "measurement": "Hill slope", "value": "1.08 ± 0.06"}
{"Structure (SMILES)": "Cn1cnc(Cn2c(=O)[nH]/c(=N\\c3cc4cn(C)nc4cc3Cl)n(Cc3cc(F)c(F)cc3F)c2=O)n1", "test system": "human, moderate renal impairment, plasma", "setting": "oral, 375 mg single dose", "measurement": "AUC(0-last)", "value": "1440 µg·h/mL"}
